Measurements pooled from the literature.
Parts stem from different laboratories: compare values within a part only. “And” joins repeats or separate records; there may be more than shown. Substitutions count along the parent as printed.
Chain of UniProt Q9UQM7 (whole entry, looked up): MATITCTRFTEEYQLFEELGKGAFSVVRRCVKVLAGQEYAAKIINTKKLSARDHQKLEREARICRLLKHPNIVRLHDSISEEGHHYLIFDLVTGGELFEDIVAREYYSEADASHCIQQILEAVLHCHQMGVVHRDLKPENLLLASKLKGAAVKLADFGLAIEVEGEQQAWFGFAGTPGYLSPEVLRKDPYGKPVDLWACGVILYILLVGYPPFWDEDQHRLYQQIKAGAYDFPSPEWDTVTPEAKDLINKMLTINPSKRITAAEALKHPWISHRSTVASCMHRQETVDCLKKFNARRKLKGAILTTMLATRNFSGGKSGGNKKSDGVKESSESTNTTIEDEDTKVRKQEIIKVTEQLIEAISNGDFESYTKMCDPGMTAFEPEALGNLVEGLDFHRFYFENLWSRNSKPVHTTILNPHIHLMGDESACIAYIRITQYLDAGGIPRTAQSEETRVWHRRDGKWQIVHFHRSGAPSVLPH

Block 1
Structure (SMILES): CC[C@@H](C)c1nc2cc(Nc3ccnc4ccc(S(=O)(=O)C(C)C)cc34)ccc2s1.Cl
Measurement: viability
L929 RIPK3 knockout; 1.563 µM: 101% and 100% and 107% and 102% and 96%
L929 RIPK3 knockout; 12.5 µM: 108% and 94.7% and 114% and 102%
L929 RIPK3 knockout; 25 µM: 88.8% and 73.8% and 97.6% and 68.3%
L929 RIPK3 knockout; 25 µM, together with: zVAD: 94.9% and 93.3% and 69.7% and 93.4% and 97%
L929; CCK-8; 1.563 µM: 104% and 101% and 102%
HT-29; necroptosis protection, CCK-8; 10 µM, together with: TNF-α SMAC mimetic zVAD: 87.7% and 90.1% and 105% and 94.7% and 75.8%
L929 RIPK3 knockout; 100 µM: 36.6% and 35.7% and 42% and 54.5%
HT-29; necroptosis protection, CCK-8; 0.313 µM, together with: TNF-α SMAC mimetic zVAD: 21.3% and 13.9% and 14.8% and 23.1% and 22.8%
L929; CCK-8; 6.25 µM: 104% and 111% and 108% and 105%
L929; CCK-8; 25 µM, together with: zVAD: 79.4% and 80.2% and 84.6% and 80.7%
HT-29; necroptosis protection, CCK-8; 2.5 µM, together with: TNF-α SMAC mimetic zVAD: 66.6% and 69.5% and 56.7% and 82.8%
L929; CCK-8; 6.25 µM, together with: zVAD: 105% and 109% and 106%

Block 2
Target: CCNB3, cyclin fold, Cln2 fusion (human)
Technique: yeast growth competition, sequencing
Matrix: yeast
Notes: strong parent motif
Baseline: not given
Direction: higher = stronger binding
Measurement: normalised enrichment score
Starting sequence: viral docking peptide; KKAKRRLFTISDS; partner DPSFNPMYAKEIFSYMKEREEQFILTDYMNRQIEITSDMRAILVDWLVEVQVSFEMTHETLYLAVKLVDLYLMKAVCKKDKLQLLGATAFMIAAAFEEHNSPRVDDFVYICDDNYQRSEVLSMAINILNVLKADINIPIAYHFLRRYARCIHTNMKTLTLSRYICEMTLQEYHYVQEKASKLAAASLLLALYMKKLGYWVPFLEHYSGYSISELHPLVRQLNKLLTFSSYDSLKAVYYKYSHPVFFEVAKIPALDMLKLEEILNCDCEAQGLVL
R6A: 0.62
F8L: 0.536
R5K F8L: 0.154
K2A: 0.527
R5A L7A: -0.221
T9A: 0.631
I10A: 0.208
S13A: 0.385
K1A: 0.417

Block 3
Target: CRIPT, C-terminal peptide
Technique: DHFR complementation, deep sequencing
Matrix: yeast
Notes: single substitutions, model-inferred values
Baseline: wild type
Direction: higher = weaker binding
Measurement: binding free energy change
Starting sequence: ERBIN, PDZ domain 1 (human); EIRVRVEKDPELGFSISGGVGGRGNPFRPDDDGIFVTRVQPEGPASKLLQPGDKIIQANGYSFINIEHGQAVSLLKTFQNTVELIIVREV; partner TKNYKQTSV
Q40E: 0.124 kcal/mol
R38E: -0.0465 kcal/mol
G21W: 0.199 kcal/mol
L75S: 0.823 kcal/mol
F27R: 1.14 kcal/mol
P51K: 0.267 kcal/mol
N65E: 0.0121 kcal/mol
I56L: 0.137 kcal/mol

Further values, each from its own experiment
C[C@]12CC[C@H](O)C[C@@H]1CC[C@@H]1[C@@H]2CC[C@]2(C)C(=O)CC[C@@H]12  inhibition (Calcium/calmodulin-dependent protein kinase type II subunit alpha (CAMK2A, Homo sapiens, UniProt Q9UQM7); enzyme activity, inhibitor; 10 µM): 6%

For quick reference, copied from above (block 1):
L929 RIPK3 knockout; 100 µM: 36.6% and 35.7% and 42% and 54.5%
HT-29; necroptosis protection, CCK-8; 0.313 µM, together with: TNF-α SMAC mimetic zVAD: 21.3% and 13.9% and 14.8% and 23.1% and 22.8%
L929; CCK-8; 6.25 µM: 104% and 111% and 108% and 105%
